Experimental data gathered from unrelated publications.
A part holds a random share of what one study measured.
Sequence of UniProt P54762 (whole entry, looked up): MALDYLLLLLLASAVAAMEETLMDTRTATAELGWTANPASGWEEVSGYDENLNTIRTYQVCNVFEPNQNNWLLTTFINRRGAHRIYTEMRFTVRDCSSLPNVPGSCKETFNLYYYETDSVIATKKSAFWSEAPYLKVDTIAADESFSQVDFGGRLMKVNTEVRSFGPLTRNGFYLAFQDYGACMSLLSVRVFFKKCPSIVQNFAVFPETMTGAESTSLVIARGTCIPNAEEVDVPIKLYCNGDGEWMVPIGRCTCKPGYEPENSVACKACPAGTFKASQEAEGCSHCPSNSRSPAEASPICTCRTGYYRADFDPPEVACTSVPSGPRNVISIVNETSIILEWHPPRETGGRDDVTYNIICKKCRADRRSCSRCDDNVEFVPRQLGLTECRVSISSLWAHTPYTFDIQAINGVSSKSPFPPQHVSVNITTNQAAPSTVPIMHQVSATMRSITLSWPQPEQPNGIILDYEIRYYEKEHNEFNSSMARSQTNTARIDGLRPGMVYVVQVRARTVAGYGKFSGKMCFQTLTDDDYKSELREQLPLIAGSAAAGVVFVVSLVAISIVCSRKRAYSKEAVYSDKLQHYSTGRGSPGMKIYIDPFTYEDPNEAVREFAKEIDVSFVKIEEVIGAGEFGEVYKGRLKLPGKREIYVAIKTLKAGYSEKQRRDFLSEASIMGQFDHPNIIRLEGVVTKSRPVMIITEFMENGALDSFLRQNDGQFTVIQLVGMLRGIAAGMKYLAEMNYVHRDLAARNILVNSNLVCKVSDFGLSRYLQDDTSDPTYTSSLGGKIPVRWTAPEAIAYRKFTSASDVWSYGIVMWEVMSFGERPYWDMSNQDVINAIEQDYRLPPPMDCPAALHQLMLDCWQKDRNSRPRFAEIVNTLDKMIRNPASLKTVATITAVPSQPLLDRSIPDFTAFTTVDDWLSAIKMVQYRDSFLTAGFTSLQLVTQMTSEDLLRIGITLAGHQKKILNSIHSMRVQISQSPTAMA
Sequence of UniProt Q7Z7E8 (whole entry, looked up): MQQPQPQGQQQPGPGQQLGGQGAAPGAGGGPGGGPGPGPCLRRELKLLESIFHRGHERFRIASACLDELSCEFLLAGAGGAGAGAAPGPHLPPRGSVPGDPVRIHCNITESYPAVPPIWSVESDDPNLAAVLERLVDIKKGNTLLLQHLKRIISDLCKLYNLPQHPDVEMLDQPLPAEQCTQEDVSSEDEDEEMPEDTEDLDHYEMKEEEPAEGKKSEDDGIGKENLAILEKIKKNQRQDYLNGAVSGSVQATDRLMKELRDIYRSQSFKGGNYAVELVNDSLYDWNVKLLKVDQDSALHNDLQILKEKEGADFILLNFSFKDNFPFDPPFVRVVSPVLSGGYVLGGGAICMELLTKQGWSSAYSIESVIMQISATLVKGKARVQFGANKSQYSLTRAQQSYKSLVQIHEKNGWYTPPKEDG
Sequence of UniProt P51451 (whole entry, looked up): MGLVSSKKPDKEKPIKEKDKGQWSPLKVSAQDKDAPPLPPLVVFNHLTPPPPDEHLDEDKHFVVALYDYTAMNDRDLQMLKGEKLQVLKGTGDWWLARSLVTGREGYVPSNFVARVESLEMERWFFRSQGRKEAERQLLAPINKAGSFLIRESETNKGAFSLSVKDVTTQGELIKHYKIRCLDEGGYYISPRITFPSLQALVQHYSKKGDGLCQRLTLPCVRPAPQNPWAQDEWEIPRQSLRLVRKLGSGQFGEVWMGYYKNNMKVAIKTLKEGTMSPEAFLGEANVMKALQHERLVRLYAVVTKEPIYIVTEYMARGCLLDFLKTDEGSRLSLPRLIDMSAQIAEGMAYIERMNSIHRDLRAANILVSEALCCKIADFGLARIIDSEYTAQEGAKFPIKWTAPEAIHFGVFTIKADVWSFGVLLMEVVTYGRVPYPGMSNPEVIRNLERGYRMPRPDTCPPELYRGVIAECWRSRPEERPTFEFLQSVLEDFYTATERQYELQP
Sequence of UniProt P51668 (whole entry, looked up): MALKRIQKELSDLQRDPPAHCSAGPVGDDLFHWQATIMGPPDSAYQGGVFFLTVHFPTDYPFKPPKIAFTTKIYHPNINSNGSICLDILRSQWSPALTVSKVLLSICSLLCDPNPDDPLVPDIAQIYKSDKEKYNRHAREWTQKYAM
Sequence of UniProt Q9UK32 (whole entry, looked up): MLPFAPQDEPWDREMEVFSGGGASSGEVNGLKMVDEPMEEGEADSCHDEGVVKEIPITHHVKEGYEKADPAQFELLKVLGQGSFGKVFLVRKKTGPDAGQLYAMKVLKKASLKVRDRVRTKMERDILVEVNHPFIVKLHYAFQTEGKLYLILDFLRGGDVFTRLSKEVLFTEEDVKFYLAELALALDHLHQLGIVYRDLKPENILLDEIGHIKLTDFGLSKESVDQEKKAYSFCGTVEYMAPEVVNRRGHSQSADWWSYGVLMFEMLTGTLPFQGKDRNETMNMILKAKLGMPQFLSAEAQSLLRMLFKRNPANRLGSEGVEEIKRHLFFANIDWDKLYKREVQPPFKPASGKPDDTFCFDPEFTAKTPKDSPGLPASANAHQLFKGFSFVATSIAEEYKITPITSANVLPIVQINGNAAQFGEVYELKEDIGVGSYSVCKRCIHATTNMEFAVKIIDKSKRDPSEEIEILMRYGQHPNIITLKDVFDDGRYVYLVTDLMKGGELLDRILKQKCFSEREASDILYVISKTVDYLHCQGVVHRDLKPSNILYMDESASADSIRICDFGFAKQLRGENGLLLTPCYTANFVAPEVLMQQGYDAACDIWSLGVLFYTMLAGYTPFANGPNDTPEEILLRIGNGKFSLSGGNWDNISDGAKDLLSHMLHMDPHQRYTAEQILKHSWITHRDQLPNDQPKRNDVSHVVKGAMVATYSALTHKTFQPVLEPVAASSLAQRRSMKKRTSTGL
Sequence of UniProt P63146 (whole entry, looked up): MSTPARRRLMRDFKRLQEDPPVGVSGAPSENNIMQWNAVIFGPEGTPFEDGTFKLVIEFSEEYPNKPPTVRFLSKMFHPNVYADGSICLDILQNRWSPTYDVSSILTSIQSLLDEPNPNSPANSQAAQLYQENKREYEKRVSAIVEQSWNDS
Sequence of UniProt P30530 (whole entry, looked up): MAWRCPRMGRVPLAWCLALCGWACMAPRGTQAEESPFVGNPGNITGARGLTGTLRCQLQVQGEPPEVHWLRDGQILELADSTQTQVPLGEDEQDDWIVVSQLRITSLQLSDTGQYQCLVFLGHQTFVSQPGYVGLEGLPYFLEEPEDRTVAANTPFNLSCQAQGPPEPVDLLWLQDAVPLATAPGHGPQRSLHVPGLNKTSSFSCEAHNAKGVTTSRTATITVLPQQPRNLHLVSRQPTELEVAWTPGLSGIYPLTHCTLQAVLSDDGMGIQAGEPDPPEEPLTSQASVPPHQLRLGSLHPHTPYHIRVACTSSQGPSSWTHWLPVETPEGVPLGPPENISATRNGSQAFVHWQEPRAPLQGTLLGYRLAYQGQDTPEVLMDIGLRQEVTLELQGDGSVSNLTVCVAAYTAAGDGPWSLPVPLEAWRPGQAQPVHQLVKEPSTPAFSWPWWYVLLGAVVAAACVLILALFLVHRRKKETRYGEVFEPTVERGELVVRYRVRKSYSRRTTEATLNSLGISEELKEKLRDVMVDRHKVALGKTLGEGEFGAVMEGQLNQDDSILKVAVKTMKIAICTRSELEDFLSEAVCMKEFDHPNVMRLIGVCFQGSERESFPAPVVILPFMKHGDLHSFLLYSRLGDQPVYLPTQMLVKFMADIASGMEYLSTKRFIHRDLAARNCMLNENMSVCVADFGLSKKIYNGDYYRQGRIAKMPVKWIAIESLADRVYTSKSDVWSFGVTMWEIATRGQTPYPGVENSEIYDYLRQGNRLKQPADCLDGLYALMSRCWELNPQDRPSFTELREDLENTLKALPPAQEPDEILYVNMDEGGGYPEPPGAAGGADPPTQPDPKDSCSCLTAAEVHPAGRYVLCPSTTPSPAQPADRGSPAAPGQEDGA
Sequence of UniProt Q9UEE5 (whole entry, looked up): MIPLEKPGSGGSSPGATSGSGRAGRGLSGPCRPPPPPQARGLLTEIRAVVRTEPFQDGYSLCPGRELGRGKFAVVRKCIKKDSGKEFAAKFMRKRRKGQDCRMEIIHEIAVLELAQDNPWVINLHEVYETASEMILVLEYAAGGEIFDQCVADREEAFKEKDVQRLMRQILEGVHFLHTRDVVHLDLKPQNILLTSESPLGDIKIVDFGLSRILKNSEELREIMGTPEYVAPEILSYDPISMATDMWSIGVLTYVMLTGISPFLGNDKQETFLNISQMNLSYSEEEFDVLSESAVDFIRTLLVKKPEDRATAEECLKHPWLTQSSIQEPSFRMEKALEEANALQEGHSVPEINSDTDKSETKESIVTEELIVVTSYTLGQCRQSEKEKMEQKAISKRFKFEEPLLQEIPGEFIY
Sequence of UniProt Q9NPD8 (whole entry, looked up): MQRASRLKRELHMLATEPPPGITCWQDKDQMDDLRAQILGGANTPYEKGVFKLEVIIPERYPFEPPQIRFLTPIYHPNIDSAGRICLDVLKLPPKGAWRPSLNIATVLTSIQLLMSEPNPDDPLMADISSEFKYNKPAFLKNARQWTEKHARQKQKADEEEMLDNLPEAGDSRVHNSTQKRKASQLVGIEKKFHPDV
Sequence of UniProt Q969T4 (whole entry, looked up): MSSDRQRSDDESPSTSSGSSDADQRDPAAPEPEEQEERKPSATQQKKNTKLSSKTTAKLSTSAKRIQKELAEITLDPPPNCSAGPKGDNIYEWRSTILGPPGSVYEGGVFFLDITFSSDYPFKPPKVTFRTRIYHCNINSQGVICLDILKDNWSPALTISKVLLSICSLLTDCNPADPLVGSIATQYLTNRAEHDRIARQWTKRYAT

Study 1
Molecule: ISNDSETLEECMVCSDMKRDTLFGPCGHIATCSLCSPRVKKCLICKEQVQSRTKIE (MIB1 RING domain (UniProt Q86YT6))
Technique: yeast two-hybrid
Medium: yeast
Setting: mostly zero background
Relative to: not given
Reading: higher = stronger interaction
For BIRC6 UBC core domain (UniProt Q9NR09): “lacZ reporter activity” read 0.
For UBE2Q1 UBC core domain (UniProt Q7Z7E8): “lacZ reporter activity” read 0.
The “lacZ reporter activity” was 0 (UBE2E3 UBC core domain (UniProt Q969T4)).
It gave 0 for “lacZ reporter activity” (UBE2B UBC core domain (UniProt P63146)).
For UBE2I UBC core domain (UniProt P63279): “lacZ reporter activity” read 0.
It gave 0 for “lacZ reporter activity” (UBE2D1 UBC core domain (UniProt P51668)).
UBE2O UBC core domain (UniProt Q9C0C9) — “lacZ reporter activity”: 0.
The “lacZ reporter activity” was 0 (UBE2T UBC core domain (UniProt Q9NPD8)).

Study 2
Target: Histone acetyltransferase KAT6A, both winged helices, GST fusion (KAT6A, Homo sapiens, UniProt Q92794, residues 1-181)
Technique: protein binding microarray
Form: double-stranded DNA, one strand shown
Medium: in vitro
Concentration: not given
Setting: 8-mer, flanks averaged, mean of 2 arrays, mostly near background
Relative to: not given
Reading: higher = stronger binding
Target sequence (chain): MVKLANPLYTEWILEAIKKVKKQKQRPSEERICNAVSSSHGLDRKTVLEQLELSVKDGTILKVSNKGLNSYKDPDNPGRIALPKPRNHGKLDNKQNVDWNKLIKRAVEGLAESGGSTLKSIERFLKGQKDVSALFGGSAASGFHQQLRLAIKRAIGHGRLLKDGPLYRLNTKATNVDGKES
With `GTCTTGGA` the E-score was -0.139.
`ACGTAAAC` has an E-score of 0.0289.
For `CTGAAGAA`, the E-score was -0.0831.
The E-score of `CGACCGTA` is reported as 0.243.
`GACCCCCC` gave an E-score of -0.102.
With `ACTATAGA` the E-score was -0.201.
`AAACGCGC` has an E-score of 0.286.
With `GAGCCGCC` the E-score was 0.232.

Study 3
Structure (SMILES): CC(=O)c1ccc(N2CCOCC2)cc1O
Read-out: enzyme activity
Mode: inhibitor
Concentration: 0.5 µM
Relative to: control
EPHB1 (Homo sapiens, UniProt P54762) — remaining activity: 103%.
It gave 96.3% for remaining activity (AXL (Homo sapiens, UniProt P30530)).
BLK (Homo sapiens, UniProt P51451) — remaining activity: 102%.
For STK17A (Homo sapiens, UniProt Q9UEE5): remaining activity read 95.9%.
The remaining activity was 95.1% (RPS6KA6 (Homo sapiens, UniProt Q9UK32)).

Single results of other studies
For `CC(=O)Nc1c(F)cc(C(=O)N[C@H]2CC[C@H](O)CC2)cc1O[C@@H](C)c1ccccc1`, “increased mitochondrial mass” read 74% (HEK293T; high-content imaging; concentration not given, 24 h, recommended concentration).
`CC(=O)N[C@@H](Cc1c[nH]c2ccccc12)C(=O)N[C@@H](CCC(=O)C=[N+]=[N-])C(=O)OC(C)C` — result for concentration: “not detected” (C57BL/6 CES1-/- mice, EL4 tumour-bearing, GI tissue; dose not given).

Some of these lines once more (single results of other studies):
`CC(=O)N[C@@H](Cc1c[nH]c2ccccc12)C(=O)N[C@@H](CCC(=O)C=[N+]=[N-])C(=O)OC(C)C` — result for concentration: “not detected” (C57BL/6 CES1-/- mice, EL4 tumour-bearing, GI tissue; dose not given).
For `CC(=O)Nc1c(F)cc(C(=O)N[C@H]2CC[C@H](O)CC2)cc1O[C@@H](C)c1ccccc1`, “increased mitochondrial mass” read 74% (HEK293T; high-content imaging; concentration not given, 24 h, recommended concentration).
